Published values of several laboratories.
Lines come from different studies, so protocols differ. Numbers after ± are the reported error.

| SMILES | technique | medium | tested at | time | temperature | notes | logP |
| --- | --- | --- | --- | --- | --- | --- | --- |
| O=C(NCCCNc1nc(Nc2cccc(NC(=O)N3CCCC3)c2)ncc1I)c1cccs1 | shake flask | octanol/water |  | 24 h | room temperature |  | 0.86 ± 0.3 |
| O=C(O)CNC(=O)C1C(=O)N(C2CCCCC2)C(=O)N(C2CCCCC2)C1=O | shake-flask, potentiometric | 1-octanol/water |  |  |  |  | 5.2 |
| COc1ccc2c3c1O[C@H]1[C@@H](O)C=C[C@@]4(O)[C@@H](C2)N(C)CC[C@]314 |  |  |  | 1 h |  |  | 0.83 |
| Cc1n[nH]c(C)c1CSCc1ccccc1 | reversed-phase HPLC | acetonitrile-water |  |  |  |  | 1.48 ± 0.4 |
| CN1CC[C@]23c4c5ccc(O)c4O[C@H]2[C@@H](O)CC[C@@]3(O)[C@H]1C5 |  |  |  | 1 h |  |  | 1.05 |
| [Cl][Ru][Cl].c1ccc(-c2ccccn2)nc1.c1ccc(-c2ccccn2)nc1.c1ccc(-c2ccccn2)nc1 | shake flask, octanol/water |  |  |  |  | chloride salt | -3 |
| CC(=O)CC(c1ccccc1)c1c(O)c2ccccc2oc1=O (stereo not shown) | shake flask, n-octanol/water |  | 1000 ng/mL |  | 22 °C |  | 2.06 ± 0.128 |
| CCCCCCCCCCCCOS(=O)(=O)O.Cc1cc(/C=C/C#N)cc(C)c1Nc1ccnc(Nc2ccc(C#N)cc2)n1 |  | octanol/water |  |  | room temperature |  | 1.68 ± 0.24 |
| Cn1c(=O)c2[nH]cnc2n(C)c1=O | shake flask, n-octanol/water |  | 1000 ng/mL |  | 22 °C |  | -0.0197 ± 0.00932 |
| COc1ccc2c3c1O[C@H]1C(=O)C=C[C@@]4(O)[C@@H](C2)N(C)CC[C@]314 |  |  |  | 1 h |  |  | 1.01 |

For quick reference, copied from above:
| SMILES | technique | medium | tested at | time | temperature | notes | logP |
| --- | --- | --- | --- | --- | --- | --- | --- |
| Cn1c(=O)c2[nH]cnc2n(C)c1=O | shake flask, n-octanol/water |  | 1000 ng/mL |  | 22 °C |  | -0.0197 ± 0.00932 |
